# Experimental data from different studies.
# Every numbered part comes from another study and shows a few of its results, in no order. Substitutions count along the parent as printed.

# Block 1 — target: BATF2, bZIP domain (human); technique: DHFR protein complementation; matrix: yeast; relative to: wild-type JUN-FOS pair; direction: higher = stronger binding
# Notes: single substitutions, most at no-binding floor
# Starting sequence: JUN, bZIP domain (human); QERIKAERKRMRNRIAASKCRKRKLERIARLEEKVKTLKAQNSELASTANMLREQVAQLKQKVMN; partner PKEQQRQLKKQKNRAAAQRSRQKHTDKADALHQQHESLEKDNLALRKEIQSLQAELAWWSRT
Change,binding fitness [natural log]
R53H,-1.01
T37L,-0.135
V56K,-1.32
K39D,-0.942
V56G,-1.35
A46R,-0.14
S43D,-0.174
E33I,-0.63
E32M,-0.69
T37R,-0.219
Q41K,-0.473
E33R,-0.537
T48G,-1.19
V35Q,-1.57
E33N,-0.541
S47Y,-0.331
R30E,-0.0187
A57L,-0.534
Q58H,-0.396
M51S,-0.226
K34I,-0.581
I28S,-0.705
R53G,-1.26
M51K,-0.176
K39C,-0.789

# Block 2 — technique: RNA Bind-n-Seq; molecule type: RNA; matrix: in vitro; concentration: not given; notes: RNA with constant flanks, ends assumed; relative to: input RNA pool; direction: higher = stronger binding
# Target: RING finger protein unkempt homolog, zinc fingers 1-6, GST-SBP tag (UNK, Homo sapiens, UniProt Q9C0B0, residues 30-357)
# All sequences stand within: GGGAGUUCUACAGUCCGACGAUC … CAACAGAGGAUUGAGCAUCA
# Residues (chain): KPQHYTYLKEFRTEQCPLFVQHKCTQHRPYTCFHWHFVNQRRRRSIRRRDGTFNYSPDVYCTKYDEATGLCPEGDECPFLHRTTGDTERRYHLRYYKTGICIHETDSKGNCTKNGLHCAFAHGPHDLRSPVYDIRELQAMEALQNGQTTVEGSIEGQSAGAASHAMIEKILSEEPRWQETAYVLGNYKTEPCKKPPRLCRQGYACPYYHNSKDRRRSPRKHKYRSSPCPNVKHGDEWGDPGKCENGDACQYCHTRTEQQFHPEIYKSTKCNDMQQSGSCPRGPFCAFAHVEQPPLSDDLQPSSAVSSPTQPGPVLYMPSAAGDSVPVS
Strand,bound/input enrichment
CCAAAACUGAAACUGUGGAUGGCAGCCAUGAAGGAAGAUCCCACAGUCUCAGCCCUGCUUACCCGUGAGAAAGACUGGCAAGGUUUCCUAGAGCUCUACUUACAGAACAGCCCUGAGGCC,0.0921 ratio
CUUCCCUUUGGAGACAAAGACACAAAAUCCAAAGUGACCCUGCUGGAAGGUGACCAUGUCCGGUUUAAUAUUUCAACAGACCGACGUGACAAAUUGGAACGAGCAACCAACAUAGAGGUU,0.255 ratio
GCCAUGACACUUGAUGAGACUAGUGUGUCUGCCCUAGUUGGAUUUAUCCAAUGUCAGUUGACCGAAGGGCAAUUACAGGAUGCAGAUCAGCAGCUAGAAUUUUUAAAUGAAAUCCAGCAA,0.372 ratio
UGUGGCUUUGGUGGGGUCUUAAGUUGUGGUCUGACACACACUGCUGUGGUUCCCCUGGAUUCCGUGAAAUGCCGUAUGCAGGUGGACCCCCAAAAGUACAAGGGCAUAUUUAACGGAUUC,0.163 ratio
GACAUCUGUCGUAGAAACCUCGAUAUUGAGCGUCCAACCUAUACUAACCUGAAUAGGUUAACCGGUCAAAUUGUGUCCUCCAUCACUGCUUCCCUGAGAUUUGAUGGAGCCCUGAAUGUU,0.109 ratio
UGUUUGGUUCUGUGUAUGCAGACACAUGAGCUGUGGGGUAACAAUCAAAACGUAAUCUUUCACCGACCGCCAUUACAUUUCUUUAAAUUUUUCAAUGCCGAUGUGUAUUCUAUAAGAGAA,1.01 ratio
ACCCGUUACAUUCAGGGAACAGGUGGUGAUGAGGUUGAUGAUUCUAUGGGUGUAAAUGACACCGAUAUAAGCCUGUACGUCCCAAGAGAUGUAGAAGAGACAGGUAUCACUGUGGCCAGU,0.174 ratio
UGGCACUUGUGUAAAACUGUCCCUGCAGAUUGAGCAGGAAGUAAAAACAAAUGGAAAUGCUUCGGACCGUGGCAGGGGUGGGGGUUGCUAAGGAAAGGGUGGGAUGGGAGUGGGUAAAGA,0.716 ratio
CUACCUUCUCGUCUUUAUAGUGCCACAAUUUAUACAGUUCUGUGUUUGACCCGUCGUCUUCACCGCCUGCAGUUCUUGCCAUUGGCUCCGUUAGGUUUGUCUUCACCCACCAGCUUCAUU,0.656 ratio
UUCUACGUGAAUAGGAUUUUGUGGCUGGCCAGAUACACUGCAUCAUCUUUUUCAUCAUUUUCCGUUCAACUUUUUCAAGUGGUUUUAAUGAAGCUCAGUUAUGAAUCAGAAAAUUACAAA,0.327 ratio
CCAGGACACUGCCUUAUGUUUGAUCAUCGGCCAAGGUCCUGGCGAGAACUGCCUCUGCGGCCCGCUGAUUUUGGGGUACUUCAUAGGAACGAGCUGUCUGGAGCACUCACAGGACUCACC,0.124 ratio

# Block 3 — technique: protein-binding microarray; molecule type: double-stranded DNA, one strand shown; matrix: in vitro; concentration: 2200 nM top; notes: 60-bp whole probe; together with: salmon DNA 0.4 mg/ml; relative to: random background probes; direction: higher = stronger binding; all sequences stand within: GCCTAGCAC … GTCTTGATTCGCTTGACGCTGCTG
# Target: Interferon regulatory factor 7, full length, phosphomimetic (IRF7, Homo sapiens, UniProt Q92985, residues 1-503, S471D/S472D/S475D/S476D/S477D/S483D/S484D/S487D)
# Residues (chain): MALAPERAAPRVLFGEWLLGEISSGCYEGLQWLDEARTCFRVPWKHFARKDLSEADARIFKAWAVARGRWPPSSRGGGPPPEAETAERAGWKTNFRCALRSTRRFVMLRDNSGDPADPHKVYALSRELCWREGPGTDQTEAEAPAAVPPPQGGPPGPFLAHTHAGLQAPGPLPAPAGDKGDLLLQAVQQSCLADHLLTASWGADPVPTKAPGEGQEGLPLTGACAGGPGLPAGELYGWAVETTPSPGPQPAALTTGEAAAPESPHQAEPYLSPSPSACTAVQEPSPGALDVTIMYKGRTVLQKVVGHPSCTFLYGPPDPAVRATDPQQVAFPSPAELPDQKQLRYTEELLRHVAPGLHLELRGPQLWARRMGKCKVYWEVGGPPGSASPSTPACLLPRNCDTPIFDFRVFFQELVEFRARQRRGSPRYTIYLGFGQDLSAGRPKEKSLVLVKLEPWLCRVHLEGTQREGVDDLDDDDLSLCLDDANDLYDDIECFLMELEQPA
Strand,fitted relative affinity
ACTGTGTTTTGGATGTCAGAGTGCTAG,0.965 z-score
GGGCATTTTTTTATCAATCAGTGCTAG,-0.231 z-score
AACCATTTTGGTTTTCTCTAGTGCTAG,1.99 z-score
CGCCCTCTCAACCATCCTGGGGTGCTA,0.121 z-score
GACGATTCCAGTTTCTAGACGTGCTAG,1.98 z-score
ACTCATTTTCGTTTTGTGTCGTGCTAG,14.3 z-score
GACGGACTGGACTTTCTGGACGTGCTA,0.25 z-score
TTAGGTATCGGTTATCGGTTAGTGCTA,1.25 z-score
GACGATTACAGTTTCGAGACGTGCTAG,3.21 z-score
TAAGGTATAAACTTGGGAAAGTGCTAG,-0.906 z-score
ATCTCACTCTAATCTCACTCTGTGCTA,1.08 z-score
TTTCACACTGTCCAGCAGGTGTGCTAG,5.22 z-score
TTAGGACTAGGGTTTCGGTTAGTGCTA,2.51 z-score
GACGTTATCCTTATCCTGACGTGCTAG,1.44 z-score
GACGGACGGGACACTGGGGACGTGCTA,-1.07 z-score
TTAGGACTGGACTTTCGGATAGTGCTA,1.49 z-score
CCCTGTTTCTACTGTCTGTTTGTGCTA,2.85 z-score
TTTGGACTGGACTTTCGGTTAGTGCTA,5.41 z-score

# Block 4 — technique: EMSA with sequencing; molecule type: double-stranded DNA, one strand shown; matrix: in vitro; concentration: 10 and 20 nM; relative to: negative control set to 0; direction: higher = stronger binding
# Target: Hepatocyte nuclear factor 3-alpha (Foxa1, Mus musculus, UniProt P35582, residues 1-468, full length assumed)
# Notes: whole designed probe, mean of two concentrations, ends assumed
# All sequences stand within: GTGAGCGGTGCCCATTGATGGGGAAC … TTTCACTGGGATCGTGGGGAC
# Construct (chain): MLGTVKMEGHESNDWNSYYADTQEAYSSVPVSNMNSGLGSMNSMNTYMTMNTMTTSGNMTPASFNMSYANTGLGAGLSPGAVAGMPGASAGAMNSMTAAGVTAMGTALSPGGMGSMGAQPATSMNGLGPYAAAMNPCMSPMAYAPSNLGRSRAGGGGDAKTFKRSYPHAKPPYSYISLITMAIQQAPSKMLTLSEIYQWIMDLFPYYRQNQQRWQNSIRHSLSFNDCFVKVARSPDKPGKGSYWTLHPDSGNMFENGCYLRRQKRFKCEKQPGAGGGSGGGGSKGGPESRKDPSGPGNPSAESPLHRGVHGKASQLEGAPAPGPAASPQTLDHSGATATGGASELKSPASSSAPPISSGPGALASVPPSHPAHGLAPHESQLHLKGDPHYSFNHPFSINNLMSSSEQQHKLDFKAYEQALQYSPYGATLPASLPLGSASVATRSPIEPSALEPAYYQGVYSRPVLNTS
Strand,normalised bound fraction [ratio]
TTTCCAGCCCTTAGTTTCTGGCATTTAACCTGACTCTGGTCCCTGAATGGCATGGGAGTGCTTTCAACCACAGGTTTCCTGACTCATTCCACTTGTTTGCTTTTCTGTCACATTCTGATCTACAGAGATCTTTATTTGCTTTGTGTTTCCAATGGAGAAAGAGCTTGGGAAGGGAGGATCCTAATTGTCTAAA,0.493
TTTTGCCTGTGATGTTAAAACTGATTAATGTGAAGAAAATGCAATGCTTTTATCCATCATGAGCTTTGAGGGGGGAAAAAAGTTTTAGAGAAAAGTAATCTAGTAAAAACAAAGGATTAAATAGGAAAATGAAGAGTGCTGGCCTAGCATTTAGGGCATTTGATATCCTGTGGACTTCTAATTAATTAAGCAG,-0.0286
TGATTCATCTGTAGGTCTGCTTCAAATGACTTTGTTCTCTTGATTATGGGCCACATTTTCCAGCTTCTTTGTGTGTTTTAAACTTTTGTATTAAGAGTACTTTTACCTTACACACAAGCACATAAGCCATGTAAAGTCCCTGTTTTGGTGAGGTTGCAATTTTTGAGCCTCAAATTCTGACAGGAAGCCCCAG,0.0275
CTCTGAATGCAGATCACAATCTTTGTTAGTCATCTTTATCTTACTGGTTACTTTGCTACTCAAAGTACACATTTCCTATGGTGGAAACTCCCTTGTTTACTTATTCTTCCTGACCCAGGTTTAAAAGGCCTGCCTAACCATCTCAGTAGGCTTTTCCTAGCTGATATCCTTCTGAGCTGTGGTAGAGAAAGGG,0.403
AGTGCCAAGAACTGCCATTTACACTCGGAAGCGCTCCAGGGAAGGTTAATACTACTGTGATTAATACAGATTACAGAGCCAATAAATTTTAGGTAATCTCCCAAAGGAGAGTTAAAGAGTTGTCTCATCGGTCCCATAAAGGCTGGTAAAAGGGGCGGGGAATGGTTCCACGCCAACCCTGTCCGTCACCGCA,-0.0773
CAAGACCCCTTGGCCCTCATCATGTTTTCCCAGCATCAAACCTTTAGACGTATTTAATGGCCCAAGGCATTCCAAGAATGAATATATTTGTGTGTACACAAGCAACCAACCAAAGAGATGGTTAATGTTTCATAAGACTGCCTAGTCACATTGTTGACATCTGAAACATCTTCTAATTTAAGACAGAGTTCAG,0.341
ATCTTCCCCCTCTTCCTTGCCCCACCAGCTCACCTACGGGGGTTATTTGCAGATAGGAAAATAAATAAAGCCGGCATTCGTTAACCCTCTTCTGGCGCAAACTGCTGTTTGCTCTGGATGAATCATGGTCCTTTGGCGACGCCAGGCTCCGGGAGAGCAAAGCACCGTGTCAGGGCCATGATCCGGGGTGGCC,0.341
ACGGAAAGTATGTTGCTGGGGCACAACATTCCAACCACCGCTCTCACAGCAGTACAAGTATCTCATTCTTCACCTTTTAAAATATTTGCCTCTTGTTTATATAGTGCCTGCATGTTTGCAGAGCACATTCACTGGACACTTTTTCATGGGCTCAGAGGGGGTTTGCATTGCAATGAATCTGAGAGGTCATTCT,0.341

# Some of these lines once more (block 1):
Change,binding fitness [natural log]
S47Y,-0.331
R30E,-0.0187
A57L,-0.534
Q58H,-0.396
M51S,-0.226
K34I,-0.581
I28S,-0.705
R53G,-1.26
M51K,-0.176
